Measurements of several laboratories.
Each line is one published result; not all experiments were run side by side. “And” joins repeats or separate records; there may be more than shown. ± marks the error that the study gave.

| SMILES | method | host | sample | route | dose | time | tissue uptake |
| --- | --- | --- | --- | --- | --- | --- | --- |
| COc1ccc2c(c1)C(C)(C)C(/C=C/C1=C(Oc3ccc(C(=O)NCCCCOc4cc(CN(Cc5ccccn5)Cc5ccccn5)cc(CN(Cc5ccccn5)Cc5ccccn5)c4)cc3)C(=C/C=C3/N(CCCCS(=O)(=O)[O-])c4ccc(OC)cc4C3(C)C)CCC1)=[N+]2CCCCS(=O)(=O)[O-].O=[N+]([O-])[O-].O=[N+]([O-])[O-].[99Tc+].[C-]#[O+].[C-]#[O+].[C-]#[O+].[Zn+2] |  | BALB/c mice, S. aureus myositis | adipose tissue |  |  | 12 h post-injection | 0.16 %ID/g and 0.59 %ID/g and 0.42 %ID/g and 0.65 %ID/g |
| COc1ccc(Nc2nc(Nc3ccc(OCCOCC[18F])cc3)ncc2Br)cc1 |  | ICR mice, S180 tumour | stomach | intravenous | 370 kBq | 5 min | 0.47 ± 0.08 %ID |
| O=C(NCC1OC2CCC=CCCC2O1)c1ccc([18F])nc1 (centres unmarked) |  | healthy female BALB/c nude mice | kidneys | intravenous | 7.4 MBq per mouse | 5 min | 11.3 ± 2.3 %ID/g |
| Cc1cc(C)n(CCN(CCN)CCCCCCNC(=O)[C@@H](N)Cc2c[nH]cn2)n1.[99Tc+].[C-]#[O+].[C-]#[O+].[C-]#[O+] |  | BALB/c nude mice MCF7 xenograft | brain | intravenous |  | 15 min | 0.16 ± 0.01 %ID/g |
| CC(C)C[C@H](NC(=O)[C@@H](CCCCNC(=O)[C@@H](Cc1ccccc1)NC(=O)CCCCCCCNC(=O)CN1CCN(CC(=O)O)CCN(CC(=O)O)CCN(CC(=O)O)CC1)NC(=O)[C@H](Cc1ccc(O)cc1)NC(=O)[C@H](CO)NC(=O)[C@H](Cc1c[nH]c2ccccc12)NC(=O)[C@H](Cc1c[nH]cn1)NC(=O)[C@@H]1CCC(=O)N1)C(=O)N[C@@H](CCCNC(=N)N)C(=O)N1CCC[C@H]1C(=O)NCC(N)=O [indium-111 labelled] | biodistribution | male athymic nude mice, DU-145 prostate cancer xenograft | lung | intravenous | 0.037 MBq | 0.5 h post-injection | 1.61 ± 0.24 %ID/g |
| O=C(NCC1OC2CCC=CCCC2O1)c1ccc(COCCOCCOCC[18F])cc1 (centres unmarked) |  | healthy female BALB/c nude mice | pancreas | intravenous | 7.4 MBq per mouse | 60 min | 1.3 ± 1.2 %ID/g |
| O=C([O-])CN1CCN(CC(=O)[O-])CCN(CC(=O)NC[C@H]2CC[C@H](C(=O)N[C@H](Cc3cnc4ccccc4c3)C(=O)NCCCC[C@H](NC(=O)N[C@@H](CCC(=O)O)C(=O)O)C(=O)O)CC2)CCN(CC(=O)[O-])CC1.[64Cu+2] | ex vivo gamma counting | 22Rv1 tumour-bearing mice | lung | intravenous | 0.74 MBq | 24 h post-injection | 15.2 %ID/g |
| CCCC[C@H](NC(=O)CCCCCCCNC(=O)CN1CCN(CC(=O)O)CCN(CC(=O)O)CC1)C(=O)N[C@H]1CC(=O)NCCCC[C@@H](C(N)=O)NC(=O)[C@H](Cc2c[nH]c3ccccc23)NC(=O)[C@H](CCCNC(=N)N)NC(=O)[C@@H](Cc2ccccc2)NC(=O)[C@H](Cc2c[nH]cn2)NC1=O [fluorine-18 labelled] |  | C57 mice B16-F10 melanoma | liver | intravenous | 0.37 MBq | 2 h | 2.72 ± 0.12 %ID/g |

For quick reference, copied from above:
| SMILES | method | host | sample | route | dose | time | tissue uptake |
| --- | --- | --- | --- | --- | --- | --- | --- |
| COc1ccc(Nc2nc(Nc3ccc(OCCOCC[18F])cc3)ncc2Br)cc1 |  | ICR mice, S180 tumour | stomach | intravenous | 370 kBq | 5 min | 0.47 ± 0.08 %ID |
